# Measured values of several laboratories.
# Protocols differ between the studies behind these lines. ± gives the spread as reported.
# DCLRE1A: DNA cross-link repair 1A protein (DCLRE1A, Homo sapiens, UniProt Q6PJP8)
# NTRK1: High affinity nerve growth factor receptor (NTRK1, Homo sapiens, UniProt P04629)
# CSNK2A2: Casein kinase II subunit alpha' (CSNK2A2, Homo sapiens, UniProt P19784)
Compound,target,assay,conditions,how to read,remaining activity
COc1cccc2c1C(=O)c1c(O)c3c(c(O)c1C2=O)C[C@@](O)(C(C)=O)C[C@@H]3O[C@H]1C[C@H](N)[C@H](O)[C@H](C)O1,DCLRE1A,"exonuclease activity, inhibitor, fluorescence HTS","10 µM, 80 min, together with: 8 nM 5P-FQ substrate",,52.7%
COc1cc(F)ccc1-c1ncnc(Nc2cccc(C[S@](C)(=N)=O)c2)n1,NTRK1,kinase activity,"10 µM, together with: 10 µM ATP",,20%
NC/C(=C\F)COc1cccc(Cn2c(=S)[nH]c(=O)c3[nH]cnc32)c1,"Myeloperoxidase (MPO, Homo sapiens, UniProt P05164)","LDL lipid peroxidation, inhibitor, cholesteryl ester hydroperoxide",0.1667 µM,,9.49%
COc1cc(-c2cncc3c2CN(C)Cc2cc(N4CCNCC4)ccc2-3)cc(OC)c1OC,"MYLK (Homo sapiens, UniProt Q15746)",kinase activity,"1 µM, human enzyme, together with: ATP 10 µM",baseline: DMSO control,102%
O=C1NC(=O)/C(=C/c2ccc(-c3ccc(F)cc3O)o2)S1,NTRK1,enzyme activity,10 µM,,79%
C=CC(=O)N1CCC[C@@H](n2nc(-c3ccc(Oc4ccccc4)cc3)c3c(N)ncnc32)C1,"CAMK1 (Homo sapiens, UniProt Q14012)",,10 µM,,7.48%
O=C1c2c(O)ccc(O)c2C(=O)c2c(NCCNCCO)ccc(NCCNCCO)c21,DCLRE1A,"exonuclease activity, inhibitor, fluorescence HTS","10 µM, 80 min, together with: 8 nM 5P-FQ substrate",,42.7%
COc1cc(N2CCN(C)CC2)ccc1Nc1nc(N)n(C(=S)NCc2c(Cl)cccc2Cl)n1,CSNK2A2,enzyme activity,10 µM,baseline: control,32%
O=C(O)c1ccc(Nc2ncc3c(n2)-c2ccc(Cl)cc2C(c2c(F)cccc2F)=NC3)cc1,MSSK1(h),kinase activity,1 µM,,100%
O=C(O)C1=CC(=C(c2ccc(O)c(C(=O)O)c2)c2ccc(O)c(C(=O)O)c2)C=CC1=O,DCLRE1A,"exonuclease activity, inhibitor, fluorescence HTS","10 µM, 80 min, together with: 8 nM 5P-FQ substrate",,16.9%
COc1ccc(F)cc1C(=O)NCc1ccc(-c2nn([C@@H](C)C(F)(F)F)c(N)c2C(N)=O)cc1,"ARAF (Homo sapiens, UniProt P10398)","kinase activity, inhibitor, HotSpot radiometric","100 nM, together with: ATP 10 µM",,98 ± 2.3%
COc1cc(Nc2ncc3c(n2)-c2ccc(Cl)cc2C(c2c(F)cccc2OC)=NC3)ccc1C(=O)O,CLK3,kinase activity,1 µM,,94%
Cc1c2oc3c(C)ccc(C(=O)N[C@@H]4C(=O)N[C@H](C(C)C)C(=O)N5CCC[C@H]5C(=O)N(C)CC(=O)N(C)[C@@H](C(C)C)C(=O)O[C@@H]4C)c3nc-2c(C(=O)N[C@@H]2C(=O)N[C@H](C(C)C)C(=O)N3CCC[C@H]3C(=O)N(C)CC(=O)N(C)[C@@H](C(C)C)C(=O)O[C@@H]2C)c(N)c1=O,DCLRE1A,"exonuclease activity, inhibitor, fluorescence HTS","10 µM, 80 min, together with: 8 nM 5P-FQ substrate",,36.9%
O=C(NC1CCC1)c1ccc2nc(-c3cccc(NS(=O)(=O)NCCN4CCCCC4)c3)cn2c1,"EPHB1 (Homo sapiens, UniProt P54762)",enzyme activity,10 µM,,100%
COc1cccc2c1C(=O)c1c(O)c3c(c(O)c1C2=O)C[C@@](O)(C(=O)CO)C[C@@H]3O[C@H]1C[C@H](N)[C@H](O)[C@H](C)O1,DCLRE1A,"exonuclease activity, inhibitor, fluorescence HTS","10 µM, 80 min, together with: 8 nM 5P-FQ substrate",,48.5%
Cc1cc(Nc2cc(N3CCN(C)CC3)nc(Sc3ccc(NC(=O)C4CC4)cc3)n2)[nH]n1,CSNK2A2,"kinase activity, KinaseProfiler","0.03 µM, species human",baseline: control,101%

# For quick reference, copied from above:
Compound,target,assay,conditions,how to read,remaining activity
O=C1c2c(O)ccc(O)c2C(=O)c2c(NCCNCCO)ccc(NCCNCCO)c21,DCLRE1A,"exonuclease activity, inhibitor, fluorescence HTS","10 µM, 80 min, together with: 8 nM 5P-FQ substrate",,42.7%
COc1cccc2c1C(=O)c1c(O)c3c(c(O)c1C2=O)C[C@@](O)(C(C)=O)C[C@@H]3O[C@H]1C[C@H](N)[C@H](O)[C@H](C)O1,DCLRE1A,"exonuclease activity, inhibitor, fluorescence HTS","10 µM, 80 min, together with: 8 nM 5P-FQ substrate",,52.7%
